Published values collected from several papers.
Numbered parts are unrelated; each lists some results of a single study.
UniProt Q9HBH9, sequence (whole entry, looked up): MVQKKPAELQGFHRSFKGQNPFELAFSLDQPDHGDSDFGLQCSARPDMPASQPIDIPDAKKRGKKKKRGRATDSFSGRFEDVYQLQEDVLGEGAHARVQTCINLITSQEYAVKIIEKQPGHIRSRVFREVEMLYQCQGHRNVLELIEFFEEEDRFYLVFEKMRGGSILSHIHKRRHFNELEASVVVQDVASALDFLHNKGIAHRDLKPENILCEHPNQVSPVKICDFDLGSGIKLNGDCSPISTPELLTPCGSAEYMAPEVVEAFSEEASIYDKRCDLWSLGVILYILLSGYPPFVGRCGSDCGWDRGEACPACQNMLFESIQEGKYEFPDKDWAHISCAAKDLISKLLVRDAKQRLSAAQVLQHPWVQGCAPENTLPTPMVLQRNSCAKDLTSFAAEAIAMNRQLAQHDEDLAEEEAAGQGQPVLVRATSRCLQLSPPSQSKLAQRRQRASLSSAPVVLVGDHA
UniProt P28482, sequence (whole entry, looked up): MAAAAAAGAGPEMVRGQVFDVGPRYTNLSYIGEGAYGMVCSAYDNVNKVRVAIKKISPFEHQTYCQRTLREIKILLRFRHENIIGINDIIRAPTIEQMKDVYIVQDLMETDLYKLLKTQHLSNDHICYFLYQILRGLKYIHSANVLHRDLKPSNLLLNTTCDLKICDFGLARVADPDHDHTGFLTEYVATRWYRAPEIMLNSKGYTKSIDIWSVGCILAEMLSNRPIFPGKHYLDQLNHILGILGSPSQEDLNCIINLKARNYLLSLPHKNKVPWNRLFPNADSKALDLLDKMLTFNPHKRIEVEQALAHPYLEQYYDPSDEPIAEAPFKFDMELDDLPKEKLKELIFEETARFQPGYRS
UniProt P45985, sequence (whole entry, looked up): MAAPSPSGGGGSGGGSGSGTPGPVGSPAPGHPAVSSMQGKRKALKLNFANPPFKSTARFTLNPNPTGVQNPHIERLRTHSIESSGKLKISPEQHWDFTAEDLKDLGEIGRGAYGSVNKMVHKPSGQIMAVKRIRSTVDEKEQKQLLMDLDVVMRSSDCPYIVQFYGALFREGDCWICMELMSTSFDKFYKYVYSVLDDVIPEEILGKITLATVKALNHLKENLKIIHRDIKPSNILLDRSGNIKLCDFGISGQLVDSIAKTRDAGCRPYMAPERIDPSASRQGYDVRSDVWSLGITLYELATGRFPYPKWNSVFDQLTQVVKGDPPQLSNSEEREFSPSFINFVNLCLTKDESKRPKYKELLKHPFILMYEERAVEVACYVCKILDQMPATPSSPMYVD
UniProt P54760, sequence (whole entry, looked up): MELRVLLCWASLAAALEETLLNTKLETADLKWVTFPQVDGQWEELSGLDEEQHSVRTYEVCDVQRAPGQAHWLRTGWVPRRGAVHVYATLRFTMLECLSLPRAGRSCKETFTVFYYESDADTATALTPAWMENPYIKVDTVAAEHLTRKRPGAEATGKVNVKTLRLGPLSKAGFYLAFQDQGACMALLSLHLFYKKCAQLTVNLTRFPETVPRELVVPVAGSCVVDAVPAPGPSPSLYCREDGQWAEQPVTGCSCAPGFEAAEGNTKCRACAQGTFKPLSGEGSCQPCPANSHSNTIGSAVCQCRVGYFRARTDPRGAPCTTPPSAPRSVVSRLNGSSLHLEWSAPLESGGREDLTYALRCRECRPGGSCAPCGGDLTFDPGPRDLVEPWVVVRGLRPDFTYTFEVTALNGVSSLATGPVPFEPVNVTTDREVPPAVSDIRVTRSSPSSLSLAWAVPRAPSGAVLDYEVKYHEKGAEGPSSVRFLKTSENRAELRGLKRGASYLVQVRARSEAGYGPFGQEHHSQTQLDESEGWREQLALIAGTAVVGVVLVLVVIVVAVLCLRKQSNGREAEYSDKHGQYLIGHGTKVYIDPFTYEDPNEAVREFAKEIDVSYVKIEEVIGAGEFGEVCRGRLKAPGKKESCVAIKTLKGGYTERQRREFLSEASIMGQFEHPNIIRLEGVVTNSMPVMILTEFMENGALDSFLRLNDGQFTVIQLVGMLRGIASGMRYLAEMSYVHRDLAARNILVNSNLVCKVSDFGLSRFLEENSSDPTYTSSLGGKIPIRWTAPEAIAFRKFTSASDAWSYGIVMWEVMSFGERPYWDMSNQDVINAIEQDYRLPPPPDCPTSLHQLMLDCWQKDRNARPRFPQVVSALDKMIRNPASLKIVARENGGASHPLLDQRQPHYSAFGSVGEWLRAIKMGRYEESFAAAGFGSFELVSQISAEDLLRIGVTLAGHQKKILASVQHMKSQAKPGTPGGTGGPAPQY
UniProt Q13464, sequence (whole entry, looked up): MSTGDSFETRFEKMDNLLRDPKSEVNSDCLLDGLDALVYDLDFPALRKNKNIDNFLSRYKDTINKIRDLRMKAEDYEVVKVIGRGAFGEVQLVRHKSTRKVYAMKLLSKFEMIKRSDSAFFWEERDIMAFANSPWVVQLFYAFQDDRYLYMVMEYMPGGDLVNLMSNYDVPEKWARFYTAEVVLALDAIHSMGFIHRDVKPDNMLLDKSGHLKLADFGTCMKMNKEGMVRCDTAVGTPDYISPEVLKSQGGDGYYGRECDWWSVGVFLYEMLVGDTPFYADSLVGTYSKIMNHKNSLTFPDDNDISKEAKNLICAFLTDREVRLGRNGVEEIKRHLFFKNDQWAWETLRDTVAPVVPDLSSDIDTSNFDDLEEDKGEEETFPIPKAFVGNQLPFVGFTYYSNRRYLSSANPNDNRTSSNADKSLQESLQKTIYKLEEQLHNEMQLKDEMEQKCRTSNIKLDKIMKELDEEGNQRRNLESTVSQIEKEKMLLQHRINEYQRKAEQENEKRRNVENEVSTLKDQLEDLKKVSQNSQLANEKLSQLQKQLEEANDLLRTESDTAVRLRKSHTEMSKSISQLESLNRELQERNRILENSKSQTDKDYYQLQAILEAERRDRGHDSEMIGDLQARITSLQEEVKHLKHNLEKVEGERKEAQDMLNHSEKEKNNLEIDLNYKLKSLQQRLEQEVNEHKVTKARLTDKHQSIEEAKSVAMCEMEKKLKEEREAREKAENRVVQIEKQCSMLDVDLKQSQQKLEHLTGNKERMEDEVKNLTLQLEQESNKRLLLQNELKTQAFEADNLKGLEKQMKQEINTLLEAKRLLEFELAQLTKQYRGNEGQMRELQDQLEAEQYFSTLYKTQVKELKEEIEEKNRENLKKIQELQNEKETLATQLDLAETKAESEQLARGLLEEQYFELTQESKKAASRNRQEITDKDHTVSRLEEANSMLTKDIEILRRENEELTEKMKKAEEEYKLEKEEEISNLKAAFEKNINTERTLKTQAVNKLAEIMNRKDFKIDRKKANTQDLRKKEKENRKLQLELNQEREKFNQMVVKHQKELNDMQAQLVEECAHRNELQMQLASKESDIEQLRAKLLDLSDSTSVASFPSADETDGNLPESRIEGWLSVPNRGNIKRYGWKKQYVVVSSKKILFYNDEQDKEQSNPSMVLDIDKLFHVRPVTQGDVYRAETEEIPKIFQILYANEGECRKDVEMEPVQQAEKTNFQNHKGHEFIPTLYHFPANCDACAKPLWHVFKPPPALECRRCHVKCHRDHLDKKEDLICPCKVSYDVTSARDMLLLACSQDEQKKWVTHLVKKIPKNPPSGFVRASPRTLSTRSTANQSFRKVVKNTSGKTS
UniProt Q14680, sequence (whole entry, looked up): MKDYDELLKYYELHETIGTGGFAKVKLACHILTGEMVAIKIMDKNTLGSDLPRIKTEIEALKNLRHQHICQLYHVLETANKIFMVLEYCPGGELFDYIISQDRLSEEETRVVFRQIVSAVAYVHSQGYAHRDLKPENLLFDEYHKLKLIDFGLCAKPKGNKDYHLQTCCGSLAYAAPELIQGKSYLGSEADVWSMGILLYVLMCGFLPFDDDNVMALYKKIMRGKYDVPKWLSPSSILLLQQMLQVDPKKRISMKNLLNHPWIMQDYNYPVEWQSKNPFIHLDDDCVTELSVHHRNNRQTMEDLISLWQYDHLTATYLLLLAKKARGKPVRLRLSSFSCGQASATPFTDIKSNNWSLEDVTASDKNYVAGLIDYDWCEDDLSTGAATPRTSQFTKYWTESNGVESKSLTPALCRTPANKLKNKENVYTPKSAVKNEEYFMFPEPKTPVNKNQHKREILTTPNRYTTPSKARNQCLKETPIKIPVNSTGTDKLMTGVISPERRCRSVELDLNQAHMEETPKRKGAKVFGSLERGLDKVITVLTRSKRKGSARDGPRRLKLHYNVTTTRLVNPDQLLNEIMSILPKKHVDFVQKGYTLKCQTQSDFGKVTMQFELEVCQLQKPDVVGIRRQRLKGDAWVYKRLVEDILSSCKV

Series 1 — Structure (SMILES): CCOc1cc2ncnc(Nc3cccc(Br)c3)c2cc1OCC; observed: enzyme activity; mode: inhibitor; concentration: 0.5 µM; baseline: control
It gave 96.1% for remaining activity (Dual specificity mitogen-activated protein kinase kinase 1 (MAP2K1, Homo sapiens, UniProt Q02750)).
The remaining activity was 95.4% (Ribosomal protein S6 kinase alpha-4 (RPS6KA4, Homo sapiens, UniProt O75676)).
For Mitogen-activated protein kinase 14 (MAPK14, Homo sapiens, UniProt Q16539): remaining activity read 87.5%.
It gave 99.2% for remaining activity (MAP/microtubule affinity-regulating kinase 4 (MARK4, Homo sapiens, UniProt Q96L34)).
For cGMP-dependent protein kinase 2 (PRKG2, Homo sapiens, UniProt Q13237): remaining activity read 83.9%.
For Calcium/calmodulin-dependent protein kinase type IV (CAMK4, Homo sapiens, UniProt Q16566): remaining activity read 98.7%.
It gave 87.6% for remaining activity (RAC-beta serine/threonine-protein kinase (AKT2, Homo sapiens, UniProt P31751)).
For Mitogen-activated protein kinase 1 (MAPK1, Homo sapiens, UniProt P28482): remaining activity read 104%.
It gave 80.2% for remaining activity (Tyrosine-protein kinase TXK (TXK, Homo sapiens, UniProt P42681)).
Vascular endothelial growth factor receptor 2 (KDR, Homo sapiens, UniProt P35968) — remaining activity: 92%.
For Mitogen-activated protein kinase 11 (MAPK11, Homo sapiens, UniProt Q15759): remaining activity read 89%.
The remaining activity was 83.1% (Dual specificity protein kinase CLK4 (CLK4, Homo sapiens, UniProt Q9HAZ1)).
It gave 78.6% for remaining activity (Hepatocyte growth factor receptor (MET, Homo sapiens, UniProt P08581)).
It gave 98.8% for remaining activity (Rho-associated protein kinase 1 (ROCK1, Homo sapiens, UniProt Q13464)).

Series 2 — observed: enzyme activity; mode: inhibitor; concentration: 10 µM
Target: Calcium/calmodulin-dependent protein kinase type II subunit alpha (CAMK2A, Homo sapiens, UniProt Q9UQM7)
UniProt Q9UQM7, sequence (whole entry, looked up): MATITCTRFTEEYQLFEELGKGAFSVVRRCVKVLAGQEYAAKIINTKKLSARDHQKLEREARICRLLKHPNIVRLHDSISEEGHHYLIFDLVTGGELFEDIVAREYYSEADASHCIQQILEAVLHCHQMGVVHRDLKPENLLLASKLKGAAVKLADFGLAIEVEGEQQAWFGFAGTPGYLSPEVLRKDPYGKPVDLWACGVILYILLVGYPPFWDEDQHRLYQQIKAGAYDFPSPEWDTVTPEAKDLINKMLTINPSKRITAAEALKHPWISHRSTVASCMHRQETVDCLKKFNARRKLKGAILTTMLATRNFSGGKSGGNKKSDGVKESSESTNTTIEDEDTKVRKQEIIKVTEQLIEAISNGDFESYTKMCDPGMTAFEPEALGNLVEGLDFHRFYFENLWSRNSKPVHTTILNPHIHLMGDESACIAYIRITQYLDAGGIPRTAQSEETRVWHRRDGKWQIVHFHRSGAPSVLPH
With `CO[C@H]1/C=C/O[C@@]2(C)Oc3c(C)c(O)c4c(c3C2=O)C(=O)C=C(NC(=O)/C(C)=C\C=C\[C@H](C)[C@H](O)[C@@H](C)[C@@H](O)[C@@H](C)[C@H](OC(C)=O)[C@@H]1C)C4=O` the inhibition was 18%.
`Cc1cccc(C)c1OCC(C)N` (centres unmarked) gave an inhibition of 2%.
With `CCCCCCCC/C=C\CCCCCCCCCC(=O)O` the inhibition was -39%.
With `COc1ccc2[nH]c(=O)oc2c1` the inhibition was -1%.
With `CNCC(=O)OCc1cccnc1N(C)C(=O)OC(C)[n+]1cnn(C[C@](O)(c2cc(F)ccc2F)[C@@H](C)c2nc(-c3ccc(C#N)cc3)cs2)c1` (some centres unmarked) the inhibition was -4%.
`CCOCCN(Cc1ccc(CN(CCOCC)C(=O)C(Cl)Cl)cc1)C(=O)C(Cl)Cl` gave an inhibition of -5%.

Series 3 — observed: cell-free assay; method: competition with immobilised ligand; concentration: 1 µM
SMILES: O=C1CCc2cc(Nc3cc(OC4CCOCC4)c([N+](=O)[O-])cc3Cl)ccc2N1
The remaining binding was 98% (MAP kinase-interacting serine/threonine-protein kinase 2 (MKNK2, Homo sapiens, UniProt Q9HBH9)).
It gave 77% for remaining binding (Maternal embryonic leucine zipper kinase (MELK, Homo sapiens, UniProt Q14680)).
For BMP-2-inducible protein kinase (BMP2K, Homo sapiens, UniProt Q9NSY1): remaining binding read 100%.
For Activin receptor type-1B (ACVR1B, Homo sapiens, UniProt P36896): remaining binding read 93%.
It gave 91% for remaining binding (Cyclin-dependent kinase 17 (CDK17, Homo sapiens, UniProt Q00537)).
Bone morphogenetic protein receptor type-2 (BMPR2, Homo sapiens, UniProt Q13873) — remaining binding: 92%.

Series 4 — concentration: 1 µM
Structure (SMILES): COc1ccc2[nH]c3c4[nH]c5ccc(OC)cc5c4c4c(c3c2c1)C(=O)NC4=O
Cyclin-dependent kinase 2 (CDK2, Homo sapiens, UniProt P24941); competitive binding panel; baseline: vehicle — remaining binding: 93%.
Ephrin type-B receptor 4 (EPHB4, Homo sapiens, UniProt P54760); competitive binding panel; baseline: vehicle — remaining binding: 84%.
For Mitogen-activated protein kinase kinase kinase 11 (MAP3K11, Homo sapiens, UniProt Q16584); competitive binding panel, item: MLK3; baseline: vehicle: remaining binding read 5.6%.
The remaining binding was 91% (Dual specificity mitogen-activated protein kinase kinase 4 (MAP2K4, Homo sapiens, UniProt P45985); competitive binding panel, item: MEK4; baseline: vehicle).
The remaining binding was 36% (Tyrosine-protein kinase ABL1 (ABL1, Homo sapiens, UniProt P00519, Q252H); competitive binding scan).
For Serine/threonine-protein kinase SIK3 (SIK3, Homo sapiens, UniProt Q9Y2K2); competitive binding; QSK: remaining binding read 56%.

For quick reference, copied from above (series 1):
It gave 80.2% for remaining activity (Tyrosine-protein kinase TXK (TXK, Homo sapiens, UniProt P42681)).
For Mitogen-activated protein kinase 14 (MAPK14, Homo sapiens, UniProt Q16539): remaining activity read 87.5%.
It gave 96.1% for remaining activity (Dual specificity mitogen-activated protein kinase kinase 1 (MAP2K1, Homo sapiens, UniProt Q02750)).
The remaining activity was 83.1% (Dual specificity protein kinase CLK4 (CLK4, Homo sapiens, UniProt Q9HAZ1)).
